Results gathered from unrelated publications.
Lines come from different studies, so protocols differ. ± gives the spread as reported. ≈ marks a conversion by molar mass, not a printed value.

SMILES	target or system	assay	system	setting	how to read	measurement	result
CC(C)C[C@H](NC(=O)[C@@H]1CCCN1C(=O)[C@H](CCCCN)NC(=O)[C@@H](N)CO)C(=O)N1CCC[C@H]1C(=O)N[C@@H](CCC(=O)O)C(=O)N[C@H](C(=O)N[C@H](C(=O)N[C@@H](CC(=O)O)C(=O)N[C@@H](CCC(=O)O)C(=O)N[C@@H](Cc1ccc(O)cc1)C(=O)N[C@@H](Cc1cn(CCOCCOCCOCCNC(=O)CCc2ccc(O)c(CN(CCN(CC(=O)O)Cc3cc(CCC(=O)NCCCC[C@H](NC(=O)N[C@@H](CCC(=O)O)C(=O)O)C(=O)O)ccc3O)CC(=O)O)c2)nn1)C(=O)O)[C@@H](C)O)C(C)C [gallium-68 labelled]			NMRI nu/nu mouse, LNCaP tumour, white adipose tissue	135.34 nmol/kg, low molar activity		standardised uptake value	0.14 g/g
CCCC[C@H](NC(=O)CNC(=O)CNC(=O)c1ccc(NN)nc1)C(=O)N[C@H]1CC(=O)NCCCC[C@@H](C(N)=O)NC(=O)[C@H](Cc2c[nH]c3ccccc23)NC(=O)[C@H](CCCNC(=N)N)NC(=O)[C@@H](Cc2ccccc2)NC(=O)[C@H](Cc2c[nH]cn2)NC1=O [technetium-99m labelled]			C57 mouse, B16/F1 melanoma	2 h, with: L-lysine	baseline: tumour over liver	uptake ratio	40.3
COc1cc(OC)cc(C2=C3c4ccccc4C(c4ccc(NC(=S)NCCOCCOCCOCCC(=O)N[C@@H](CC(C)C)C(=O)N[C@@H](C)C(=O)N[C@@H](CCCNC(=N)N)C(=O)N[C@@H](CC(C)C)C(=O)N[C@@H](CC(C)C)C(=O)N[C@H](C(N)=O)[C@@H](C)O)cc4)=[N+]3[B-](F)(F)n3c2c2ccccc2c3-c2ccc(NC(=S)NCCNC(=O)CCCC[C@@H]3SC[C@@H]4NC(=O)N[C@@H]43)cc2)c1			DMSO		baseline: methylene blue	fluorescence quantum yield	0.44
CCCC[C@H](NC(=O)CCCCCCCNC(=O)c1ccc(NN)nc1)C(=O)N[C@H]1CC(=O)NCCCC[C@@H](C(N)=O)NC(=O)[C@H](Cc2c[nH]c3ccccc23)NC(=O)[C@H](CCCNC(=N)N)NC(=O)[C@@H](Cc2ccccc2)NC(=O)[C@H](Cc2c[nH]cn2)NC1=O [technetium-99m labelled]			C57 mouse, B16/F1 melanoma, bone	intravenous, 0.5 h		uptake	1.09 ± 0.28 %ID/g
CCN(Cc1ccccc1)C(=O)CCc1nc(CN2CCN(C(=O)Cc3ccc(OC)c(OC)c3)CC2)no1	Potassium voltage-gated channel subfamily KQT member 2 (KCNQ2, Homo sapiens, UniProt O43526)	whole-cell patch clamp	CHO stable	300 nM		V1/2 of activation	-39.9 ± 22 mV
N=C(N)NCCC[C@@H]1NC(=O)[C@H](CCCCNC(=O)CNC(=O)CNC(=O)CNC(=O)CC[C@H](NC(=O)c2ccc(NN=Cc3ccccc3S(=O)(=O)O)nc2)C(=O)NCC(=O)NCC(=O)NCC(=O)NCCCC[C@@H]2NC(=O)[C@@H](Cc3ccccc3)NC(=O)[C@H](CC(=O)O)NC(=O)CNC(=O)[C@H](CCCNC(=N)N)NC2=O)NC(=O)[C@@H](Cc2ccccc2)NC(=O)[C@H](CC(=O)O)NC(=O)CNC1=O [technetium-99m labelled]			athymic nu/nu mouse, female, U-87 MG glioma xenograft	intravenous, 120 min	baseline: tumour over liver	tumour to tissue ratio	2.39 ± 0.5
N=C(N)NCCC[C@@H]1NC(=O)[C@H](CCCCNC(=O)CC[C@H](NC(=O)CCOCCOCCOCCOCCNC(=O)CN2CCN(CC(=O)O)CCN(CC(=O)O)CCN(CC(=O)O)CC2)C(=O)NCCCC[C@@H]2NC(=O)[C@@H](Cc3ccccc3)NC(=O)[C@H](CC(=O)O)NC(=O)CNC(=O)[C@H](CCCNC(=N)N)NC2=O)NC(=O)[C@@H](Cc2ccccc2)NC(=O)[C@H](CC(=O)O)NC(=O)CNC1=O [indium-111 labelled]			athymic nude mice, female, U-87 MG glioma xenograft, tumour and blood	intravenous, 4 h	baseline: tumour over blood	tumour to tissue ratio	22 ± 2.79
COC(=O)C1=CO[C@@H](O)[C@@H]2C(Cn3cc(C4(O)CCCCC4)nn3)=CC[C@H]12	SK-N-SH	neuroprotection, MTT		0.15 µM, 24 h, with: 250 µM H2O2		viability	77.3%
O=C(O)CCC(NP(=O)(O)OCCC[C@@H](NC(=O)CCC(NC(=O)c1ccc([18F])cc1)C(=O)O)C(=O)O)C(=O)O (stereo partly drawn)	CWR22Rv1 tumour model		host not given, kidney	intravenous, 2 h, tumour-bearing		tracer uptake	9.97 %ID/g
CSCC[C@H](NC(=O)[C@H](CC(C)C)NC(=O)[C@H](Cc1c[nH]cn1)NC(=O)CNC(=O)[C@@H](NC(=O)[C@H](C)NC(=O)[C@H](Cc1c[nH]c2ccccc12)NC(=O)[C@H](CCC(N)=O)NC(=O)CCCCCNC(=O)CNC(=O)CNC(=O)CNC(=O)CSC(C)=O)C(C)C)C(N)=O [technetium-99m labelled]			Swiss mouse, liver	intravenous, 18.5 MBq, 240 min		tissue uptake	1.54 ± 0.06 %ID/g
CCCCCCCCC(=O)NCc1ccc(O)c(OC)c1	mAb 3-LD3	antibody binding, indirect competitive ELISA		with: coating antigen hapten 3-OVA		IC50	1.46 ng/mL (≈ 4.98 nM)
N=C(N)NCCC[C@@H]1NC(=O)[C@H](CCCCNC(=O)CNC(=O)CNC(=O)CNC(=O)CC[C@H](NC(=O)CCOCCOCCOCCOCCNC(=O)CC[C@H](NC(=O)CN2CCN(CC(=O)O)CCN(CC(=O)O)CCN(CC(=O)O)CC2)C(=O)NCCOCCOCCOCCOCCC(=O)N[C@@H](CCC(=O)NCC(=O)NCC(=O)NCC(=O)NCCCC[C@@H]2NC(=O)[C@@H](Cc3ccccc3)NC(=O)[C@H](CC(=O)O)NC(=O)CNC(=O)[C@H](CCCNC(=N)N)NC2=O)C(=O)NCC(=O)NCC(=O)NCC(=O)NCCCC[C@@H]2NC(=O)[C@@H](Cc3ccccc3)NC(=O)[C@H](CC(=O)O)NC(=O)CNC(=O)[C@H](CCCNC(=N)N)NC2=O)C(=O)NCC(=O)NCC(=O)NCC(=O)NCCCC[C@@H]2NC(=O)[C@@H](Cc3ccccc3)NC(=O)[C@H](CC(=O)O)NC(=O)CNC(=O)[C@H](CCCNC(=N)N)NC2=O)NC(=O)[C@@H](Cc2ccccc2)NC(=O)[C@H](CC(=O)O)NC(=O)CNC1=O [indium-111 labelled]			female athymic nude mouse	intravenous, 3 µCi, 72 h, U-87 MG glioma xenograft	baseline: tumour over muscle	tumour to muscle ratio	10.2 ± 2.72
COC(=O)C1=CO[C@@H](OC(C)=O)[C@@H]2C(Cn3cc(CN(C)Cc4ccccc4)nn3)=CC[C@H]12	SK-N-SH	neuroprotection, MTT		0.15 µM, 24 h, with: 250 µM H2O2		viability	50.8 ± 0.6%
N=C(N)NCCC[C@@H]1NC(=O)[C@H](CCCCNC(=O)CC[C@H](NC(=O)CCOCCOCCOCCOCCNC(=O)CC[C@H](NC(=O)CN2CCN(CC(=O)O)CCN(CC(=O)O)CCN(CC(=O)O)CC2)C(=O)NCCOCCOCCOCCOCCC(=O)N[C@@H](CCC(=O)NCCCC[C@@H]2NC(=O)[C@@H](Cc3ccccc3)NC(=O)[C@H](CC(=O)O)NC(=O)CNC(=O)[C@H](CCCNC(=N)N)NC2=O)C(=O)NCCCC[C@@H]2NC(=O)[C@@H](Cc3ccccc3)NC(=O)[C@H](CC(=O)O)NC(=O)CNC(=O)[C@H](CCCNC(=N)N)NC2=O)C(=O)NCCCC[C@@H]2NC(=O)[C@@H](Cc3ccccc3)NC(=O)[C@H](CC(=O)O)NC(=O)CNC(=O)[C@H](CCCNC(=N)N)NC2=O)NC(=O)[C@@H](Cc2ccccc2)NC(=O)[C@H](CC(=O)O)NC(=O)CNC1=O [indium-111 labelled]			athymic nude mice, female, U-87 MG glioma xenograft, tumour and lungs	intravenous, 1 h	baseline: tumour over lungs	tumour to tissue ratio	4.31 ± 0.96
N=C(N)NCCC[C@@H]1NC(=O)[C@H](CCCCNC(=O)CC[C@H](NC(=O)[C@H](CCCCNC(=O)c2ccc(NN)nc2)NC(=O)c2ccc(NN)nc2)C(=O)NCCCC[C@@H]2NC(=O)[C@@H](Cc3ccccc3)NC(=O)[C@H](CC(=O)O)NC(=O)CNC(=O)[C@H](CCCNC(=N)N)NC2=O)NC(=O)[C@@H](Cc2ccccc2)NC(=O)[C@H](CC(=O)O)NC(=O)CNC1=O [technetium-99m labelled]			female athymic nude mice	intravenous, 1 h, U-87 MG glioma xenograft	baseline: tumour over muscle	tissue ratio	4.23 ± 1.27
N=C(N)NCCC[C@@H]1NC(=O)[C@H](CCCCNC(=O)CCOCCOCCOCCOCCNC(=O)CN2CCN(CC(=O)O)CCN(CC(=O)O)CCN(CC(=O)O)CC2)NC(=O)[C@@H](Cc2ccccc2)NC(=O)[C@H](CC(=O)O)NC(=O)CNC1=O [indium-111 labelled]			athymic nude mice, female, U-87 MG glioma xenograft, tumour and blood	intravenous, 72 h	baseline: tumour over blood	tumour to tissue ratio	40.1 ± 16.4
CCCC[C@H](NC(=O)CNC(=O)[C@H](CO)NC(=O)CNC(=O)c1ccc(NN)nc1)C(=O)N[C@H]1CC(=O)NCCCC[C@@H](C(N)=O)NC(=O)[C@H](Cc2c[nH]c3ccccc23)NC(=O)[C@H](CCCNC(=N)N)NC(=O)[C@@H](Cc2ccccc2)NC(=O)[C@H](Cc2c[nH]cn2)NC1=O [technetium-99m labelled]			C57 mouse, B16/F1 melanoma, muscle	intravenous, 2 h		uptake	0.05 ± 0.02 %ID/g
COc1cc(C(=O)NCCOCCOCCOCCNC(=O)c2ccc([18F])nc2)ccc1NC(=O)C1NC(CC(C)(C)C)C(C#N)(c2ccc(Cl)cc2F)C1c1cccc(Cl)c1F (stereo not drawn)	HepG2 tumour model		host not given, bone	30 min, tumour-bearing		tracer uptake	1.58 %ID/g
